Experimental data pooled from the literature.
Parts stem from different laboratories: compare values within a part only. Several values in a cell are separate wells, animals, samples, runs or records.
Chain of UniProt P42336 (whole entry, unmodified, looked up): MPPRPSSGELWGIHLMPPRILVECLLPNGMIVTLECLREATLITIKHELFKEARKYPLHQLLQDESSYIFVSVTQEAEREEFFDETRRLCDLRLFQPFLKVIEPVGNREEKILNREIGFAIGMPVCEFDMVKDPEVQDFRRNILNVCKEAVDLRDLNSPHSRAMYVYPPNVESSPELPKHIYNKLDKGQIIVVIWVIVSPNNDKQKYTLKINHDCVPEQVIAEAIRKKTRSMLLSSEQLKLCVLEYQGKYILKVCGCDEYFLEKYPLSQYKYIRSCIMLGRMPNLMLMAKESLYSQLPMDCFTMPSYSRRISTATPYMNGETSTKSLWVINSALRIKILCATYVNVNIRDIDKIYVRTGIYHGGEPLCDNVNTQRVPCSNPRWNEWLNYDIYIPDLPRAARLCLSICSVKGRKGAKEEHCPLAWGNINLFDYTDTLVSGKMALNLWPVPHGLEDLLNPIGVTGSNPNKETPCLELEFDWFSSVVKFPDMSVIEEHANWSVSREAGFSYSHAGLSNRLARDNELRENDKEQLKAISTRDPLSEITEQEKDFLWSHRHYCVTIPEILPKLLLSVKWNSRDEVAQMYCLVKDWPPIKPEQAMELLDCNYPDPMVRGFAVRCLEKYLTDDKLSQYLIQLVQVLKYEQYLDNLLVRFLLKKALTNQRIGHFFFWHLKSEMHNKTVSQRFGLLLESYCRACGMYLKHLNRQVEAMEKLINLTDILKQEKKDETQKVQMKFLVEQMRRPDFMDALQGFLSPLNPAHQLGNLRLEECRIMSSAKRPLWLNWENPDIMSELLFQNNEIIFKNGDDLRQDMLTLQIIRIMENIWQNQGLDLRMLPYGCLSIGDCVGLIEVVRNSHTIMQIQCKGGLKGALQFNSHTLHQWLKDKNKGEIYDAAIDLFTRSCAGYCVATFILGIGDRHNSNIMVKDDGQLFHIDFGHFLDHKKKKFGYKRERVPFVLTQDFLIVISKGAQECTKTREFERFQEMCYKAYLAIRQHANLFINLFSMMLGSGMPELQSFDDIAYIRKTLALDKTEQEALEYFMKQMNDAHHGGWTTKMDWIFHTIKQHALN
Chain of UniProt Q9H4B4 (whole entry, looked up): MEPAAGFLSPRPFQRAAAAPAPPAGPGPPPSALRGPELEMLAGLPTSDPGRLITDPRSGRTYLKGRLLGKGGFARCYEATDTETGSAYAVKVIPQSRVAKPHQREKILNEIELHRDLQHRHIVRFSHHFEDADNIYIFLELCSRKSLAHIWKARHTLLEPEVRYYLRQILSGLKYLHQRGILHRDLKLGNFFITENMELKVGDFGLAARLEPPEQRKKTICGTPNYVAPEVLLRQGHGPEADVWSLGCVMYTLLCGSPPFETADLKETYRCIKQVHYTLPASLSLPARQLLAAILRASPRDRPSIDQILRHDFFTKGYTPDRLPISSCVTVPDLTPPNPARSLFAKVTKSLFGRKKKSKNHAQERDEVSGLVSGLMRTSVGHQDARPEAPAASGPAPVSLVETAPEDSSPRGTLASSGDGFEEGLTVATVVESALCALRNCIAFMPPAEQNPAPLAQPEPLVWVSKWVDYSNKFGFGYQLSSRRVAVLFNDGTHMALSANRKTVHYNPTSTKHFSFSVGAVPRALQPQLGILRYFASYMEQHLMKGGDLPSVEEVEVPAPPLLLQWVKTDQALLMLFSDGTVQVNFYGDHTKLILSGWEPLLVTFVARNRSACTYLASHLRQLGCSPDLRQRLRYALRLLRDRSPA
Chain of UniProt Q9P1W9 (whole entry, looked up): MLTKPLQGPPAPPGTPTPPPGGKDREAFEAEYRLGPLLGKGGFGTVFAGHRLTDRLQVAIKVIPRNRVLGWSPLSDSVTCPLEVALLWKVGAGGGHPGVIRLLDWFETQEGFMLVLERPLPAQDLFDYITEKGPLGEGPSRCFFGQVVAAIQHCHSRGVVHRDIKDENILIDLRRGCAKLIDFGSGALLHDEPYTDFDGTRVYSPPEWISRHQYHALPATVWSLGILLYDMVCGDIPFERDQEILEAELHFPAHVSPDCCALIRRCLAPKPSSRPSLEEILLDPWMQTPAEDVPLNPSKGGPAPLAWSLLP

Block 1 — method: competition with immobilised ligand; concentration: 1 µM; quantity: remaining binding
SMILES: C[C@@H](c1cccc(C#N)c1)n1cc(Cl)cc(C(N)=O)c1=N
Epidermal growth factor receptor (EGFR, Homo sapiens, UniProt P00533, G719C); cell-free assay: 100%
Activin receptor type-2B (ACVR2B, Homo sapiens, UniProt Q13705); binding: 100%
Phosphatidylinositol 4,5-bisphosphate 3-kinase catalytic subunit alpha isoform (PIK3CA, Homo sapiens, UniProt P42336, I800L); cell-free assay: 71%
Serine/threonine-protein kinase pim-2 (PIM2, Homo sapiens, UniProt Q9P1W9); cell-free assay: 100%
STE20-like serine/threonine-protein kinase (SLK, Homo sapiens, UniProt Q9H2G2); cell-free assay: 88%
Tyrosine-protein kinase JAK1, JH1 (JAK1, Homo sapiens, UniProt P23458); cell-free assay: 94%
Proto-oncogene tyrosine-protein kinase receptor Ret (RET, Homo sapiens, UniProt P07949, V804M); cell-free assay: 89%
Serine/threonine-protein kinase PLK3 (PLK3, Homo sapiens, UniProt Q9H4B4); cell-free assay: 89%
NUAK family SNF1-like kinase 2 (NUAK2, Homo sapiens, UniProt Q9H093); cell-free assay: 86%
Phosphatidylinositol 4,5-bisphosphate 3-kinase catalytic subunit alpha isoform (PIK3CA, Homo sapiens, UniProt P42336, H1047L); cell-free assay: 96%
Casein kinase II subunit alpha' (CSNK2A2, Homo sapiens, UniProt P19784); cell-free assay: 100%
Receptor-type tyrosine-protein kinase FLT3 (FLT3, Homo sapiens, UniProt P36888); cell-free assay: 100%
Dual specificity tyrosine-phosphorylation-regulated kinase 2 (DYRK2, Homo sapiens, UniProt Q92630); cell-free assay: 98%
Serine/threonine-protein kinase MARK2 (MARK2, Homo sapiens, UniProt Q7KZI7); cell-free assay: 100%
Mitogen-activated protein kinase kinase kinase 4 (MAP3K4, Homo sapiens, UniProt Q9Y6R4); cell-free assay: 71%

Block 2 — effect on: enzyme activity; action: inhibitor; concentration: 77 µM; relative to: untreated; quantity: remaining activity
Target: DNA polymerase theta, ATPase domain (POLQ, Homo sapiens, UniProt O75417)
Chain of UniProt O75417 (whole entry, unmodified, looked up): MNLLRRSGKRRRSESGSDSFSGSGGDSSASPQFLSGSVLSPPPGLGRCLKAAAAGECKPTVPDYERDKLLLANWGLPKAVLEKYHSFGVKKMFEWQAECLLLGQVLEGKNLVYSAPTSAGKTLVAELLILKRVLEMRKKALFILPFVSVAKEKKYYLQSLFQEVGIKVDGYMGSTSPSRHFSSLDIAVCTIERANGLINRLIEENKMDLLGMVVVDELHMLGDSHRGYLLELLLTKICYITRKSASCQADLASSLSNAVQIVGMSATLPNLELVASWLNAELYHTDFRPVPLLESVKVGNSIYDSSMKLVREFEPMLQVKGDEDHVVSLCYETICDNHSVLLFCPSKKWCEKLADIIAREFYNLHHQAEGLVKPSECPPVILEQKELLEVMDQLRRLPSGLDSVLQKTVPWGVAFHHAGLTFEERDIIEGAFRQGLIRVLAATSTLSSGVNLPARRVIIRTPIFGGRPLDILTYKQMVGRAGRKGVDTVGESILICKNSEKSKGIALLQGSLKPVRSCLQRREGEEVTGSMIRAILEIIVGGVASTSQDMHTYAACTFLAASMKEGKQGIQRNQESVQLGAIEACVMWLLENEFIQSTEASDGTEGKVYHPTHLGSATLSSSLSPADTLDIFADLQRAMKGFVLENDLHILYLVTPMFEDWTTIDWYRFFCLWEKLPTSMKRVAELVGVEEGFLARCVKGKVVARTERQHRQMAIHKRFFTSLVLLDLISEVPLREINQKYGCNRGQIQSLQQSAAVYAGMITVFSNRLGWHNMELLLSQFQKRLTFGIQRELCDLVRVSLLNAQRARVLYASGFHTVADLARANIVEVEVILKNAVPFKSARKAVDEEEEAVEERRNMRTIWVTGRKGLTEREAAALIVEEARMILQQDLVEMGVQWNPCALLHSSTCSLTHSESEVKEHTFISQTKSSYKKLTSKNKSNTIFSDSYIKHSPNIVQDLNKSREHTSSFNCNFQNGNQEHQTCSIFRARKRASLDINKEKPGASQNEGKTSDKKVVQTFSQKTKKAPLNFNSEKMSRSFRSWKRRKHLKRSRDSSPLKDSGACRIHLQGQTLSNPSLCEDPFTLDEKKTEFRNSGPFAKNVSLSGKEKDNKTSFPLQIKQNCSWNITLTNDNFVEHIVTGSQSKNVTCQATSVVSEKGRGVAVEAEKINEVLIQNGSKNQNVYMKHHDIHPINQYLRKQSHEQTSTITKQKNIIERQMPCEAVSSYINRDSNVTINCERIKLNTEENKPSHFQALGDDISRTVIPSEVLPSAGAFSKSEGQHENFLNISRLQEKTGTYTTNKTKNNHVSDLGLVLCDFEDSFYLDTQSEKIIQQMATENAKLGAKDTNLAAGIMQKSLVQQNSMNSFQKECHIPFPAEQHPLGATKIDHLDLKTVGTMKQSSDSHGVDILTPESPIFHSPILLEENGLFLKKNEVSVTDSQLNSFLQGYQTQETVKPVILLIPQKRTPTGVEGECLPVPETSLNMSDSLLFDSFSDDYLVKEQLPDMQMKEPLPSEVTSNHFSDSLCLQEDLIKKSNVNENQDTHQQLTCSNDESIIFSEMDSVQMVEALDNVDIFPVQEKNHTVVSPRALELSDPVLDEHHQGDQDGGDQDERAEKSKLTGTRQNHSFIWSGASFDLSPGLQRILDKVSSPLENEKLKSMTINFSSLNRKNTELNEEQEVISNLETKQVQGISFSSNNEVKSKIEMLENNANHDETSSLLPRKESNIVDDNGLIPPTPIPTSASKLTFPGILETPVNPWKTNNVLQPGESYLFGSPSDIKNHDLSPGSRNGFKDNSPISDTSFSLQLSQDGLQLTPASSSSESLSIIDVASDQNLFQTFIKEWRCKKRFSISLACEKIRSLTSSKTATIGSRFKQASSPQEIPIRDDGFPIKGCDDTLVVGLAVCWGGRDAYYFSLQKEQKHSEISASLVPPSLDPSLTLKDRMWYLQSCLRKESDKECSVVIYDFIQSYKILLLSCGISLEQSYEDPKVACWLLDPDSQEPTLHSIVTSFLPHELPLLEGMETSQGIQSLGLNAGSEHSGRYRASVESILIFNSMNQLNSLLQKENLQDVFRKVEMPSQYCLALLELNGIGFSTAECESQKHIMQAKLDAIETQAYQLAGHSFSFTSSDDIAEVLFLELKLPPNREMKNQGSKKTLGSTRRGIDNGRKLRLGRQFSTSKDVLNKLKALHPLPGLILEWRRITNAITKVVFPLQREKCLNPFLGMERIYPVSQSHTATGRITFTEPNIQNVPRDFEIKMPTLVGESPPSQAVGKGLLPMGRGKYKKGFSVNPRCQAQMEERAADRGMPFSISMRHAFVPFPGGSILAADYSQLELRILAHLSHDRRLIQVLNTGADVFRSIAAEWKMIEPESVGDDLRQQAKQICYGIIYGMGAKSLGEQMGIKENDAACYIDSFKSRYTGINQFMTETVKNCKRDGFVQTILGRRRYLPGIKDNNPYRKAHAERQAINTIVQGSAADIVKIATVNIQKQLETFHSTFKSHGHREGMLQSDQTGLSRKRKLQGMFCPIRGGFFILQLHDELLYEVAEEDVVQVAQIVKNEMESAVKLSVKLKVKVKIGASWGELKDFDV
COc1ccc2cc1Oc1ccc(cc1)C[C@H]1c3c(cc4c(c3Oc3cc5c(cc3OC)CCN(C)[C@@H]5C2)OCO4)CCN1C: 103%
C[C@H]1C[C@H]2[C@@H]3CCC4=CC(=O)C=C[C@]4(C)[C@@]3(Cl)[C@@H](O)C[C@]2(C)[C@@]1(O)C(=O)CO: 95%
N=C(N)NS(=O)(=O)c1ccc(N)cc1: 97.9% and 95.4%
CO[C@]12C[C@@H](COC(=O)c3cncc(Br)c3)CN(C)[C@@H]1Cc1cn(C)c3cccc2c13: 99%
CC1(C)CCC2=C(O1)c1ccccc1C(=O)C2=O: 78.4%
NC(=O)c1cc[n+](CC2=C(C(=O)O)N3C(=O)[C@@H](NC(=O)[C@@H](c4ccccc4)S(=O)(=O)[O-])[C@H]3SC2)cc1: 103% and 93.5%
O=C(O)CCCc1ccccc1: 101%
CCN(C)C(=O)Oc1cccc([C@H](C)N(C)C)c1: 96.6%
COc1cc2ncnc(N3CCN(C(=O)Nc4ccc(Oc5ccccc5)cc4)CC3)c2cc1OC: 112%
CCN(CCCCOC(=O)c1ccc(OC)c(OC)c1)C(C)Cc1ccc(OC)cc1 (stereo not drawn): 104%
CS(=O)(=O)c1ccc(C2=C(c3ccccc3)C(=O)OC2)cc1: 105%

Block 3 — quantity: inhibition
SMILES: COc1cc(C(=O)N2CCC(N3CCN(C)CC3)CC2)ccc1Nc1ncc2c(n1)N(C)c1ccccc1C(=O)N2C
ULK3 (mouse); probe labelling, KiNativ, measured: EVVAIkCVAK peptide, LYS1 site; brain tissue lysate (mouse); 0.1 µM, with: ADP acyl-phosphate probe: 0.8%
PIK3CD human; KiNativ profiling; human PBMC; 1 µM, ATP site, with: ADP acyl phosphate probe: 10.8%
SRPK1/SRPK2 (mouse); probe labelling, inhibitor, KiNativ ActivX ADP probe; mouse brain lysate; 0.1 µM: 0.7%
MAP3K2 (mouse); probe labelling, KiNativ ADP probe; mouse brain lysate; 1 µM, LYS1 labelled site: -2.1%
SGK3 (mouse); probe labelling, KiNativ, measured: FYAVkVLQK peptide, LYS1 site; brain tissue lysate (mouse); 0.1 µM, with: ATP acyl-phosphate probe: -24.8%
PFTAIRE1 human; KiNativ profiling; human PBMC lysate; concentration not given, ADP probe, Lys1 site: -7%
DCLK1; KiNativ ADP probe; mouse brain lysate; 1 µM, LYS1 site: 66.5%
human PBMC; probe labeling, inhibitor, KiNativ profiling; cell lysate; concentration not given, ATP site, with: ADP acyl-phosphate probe 0.1 µM: -2%
AKT1 (mouse); probe labelling, KiNativ, measured: GTFGkVILVK peptide, ATP loop; brain tissue lysate (mouse); 1 µM, with: ATP acyl-phosphate probe: 3%
TRKC (mouse); probe labelling, KiNativ, measured: LYS1 site peptide; brain tissue lysate (mouse); 1 µM, with: ADP acyl-phosphate probe: 14.8%
BRAF (human); probe labelling, KiNativ ADP probe; human PBMC lysate; concentration not given, LYS2 labelled site: 9.6%
human PBMC; probe labeling, inhibitor, KiNativ profiling, measured: DVkPSNVLINK; cell lysate; 1 µM, LYS2 site, with: ATP acyl-phosphate probe: -13.1%

Block 4 — effect on: enzyme activity; action: inhibitor; concentration: 10 µM; quantity: inhibition
Target: Calcium/calmodulin-dependent protein kinase type II subunit alpha (CAMK2A, Homo sapiens, UniProt Q9UQM7)
Chain of UniProt Q9UQM7 (whole entry, looked up): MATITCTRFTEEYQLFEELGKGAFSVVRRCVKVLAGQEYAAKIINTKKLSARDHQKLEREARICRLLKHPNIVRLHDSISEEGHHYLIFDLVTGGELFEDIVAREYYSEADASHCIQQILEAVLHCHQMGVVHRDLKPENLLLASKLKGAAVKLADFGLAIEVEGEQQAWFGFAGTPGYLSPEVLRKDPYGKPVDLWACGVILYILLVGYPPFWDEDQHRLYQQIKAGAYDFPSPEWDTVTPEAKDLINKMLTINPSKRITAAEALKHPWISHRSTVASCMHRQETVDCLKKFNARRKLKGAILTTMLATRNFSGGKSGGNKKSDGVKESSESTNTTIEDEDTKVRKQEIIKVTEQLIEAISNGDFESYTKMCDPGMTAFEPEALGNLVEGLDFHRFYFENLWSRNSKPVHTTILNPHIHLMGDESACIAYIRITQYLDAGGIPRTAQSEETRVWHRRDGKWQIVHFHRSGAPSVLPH
COc1cc(-c2cc(=O)c3c(O)cc(O)cc3o2)ccc1O: -17%
OCC1(O)COc2cc(O)ccc2-c2cc(O)c(O)cc2C1 (stereo not drawn): -4%
OC[C@H]1O[C@@H](OCCc2ccc(O)cc2)[C@H](O)[C@@H](O)[C@@H]1O: -20%
O=C(O)P(=O)(O)O: -12%
CCCCCCCCCCCCCCCC(=O)OCC: -18%
O=c1c(O)c(-c2ccc(O)cc2)oc2cc(O)cc(O)c12: -7%
CCCCCCCCCCCCCCCCCCCCCCCCC: 13%

Excerpt of the above (block 3):
human PBMC; probe labeling, inhibitor, KiNativ profiling, measured: DVkPSNVLINK; cell lysate; 1 µM, LYS2 site, with: ATP acyl-phosphate probe: -13.1%
PIK3CD human; KiNativ profiling; human PBMC; 1 µM, ATP site, with: ADP acyl phosphate probe: 10.8%
PFTAIRE1 human; KiNativ profiling; human PBMC lysate; concentration not given, ADP probe, Lys1 site: -7%
DCLK1; KiNativ ADP probe; mouse brain lysate; 1 µM, LYS1 site: 66.5%
TRKC (mouse); probe labelling, KiNativ, measured: LYS1 site peptide; brain tissue lysate (mouse); 1 µM, with: ADP acyl-phosphate probe: 14.8%
